Assay results collected from several papers.
Protocols differ between the studies behind these lines. Values joined by “and” are separate records of one study, mostly repeats; a detail may differ. ± marks the error that the study gave.
Chain of UniProt P52564 (whole entry, looked up): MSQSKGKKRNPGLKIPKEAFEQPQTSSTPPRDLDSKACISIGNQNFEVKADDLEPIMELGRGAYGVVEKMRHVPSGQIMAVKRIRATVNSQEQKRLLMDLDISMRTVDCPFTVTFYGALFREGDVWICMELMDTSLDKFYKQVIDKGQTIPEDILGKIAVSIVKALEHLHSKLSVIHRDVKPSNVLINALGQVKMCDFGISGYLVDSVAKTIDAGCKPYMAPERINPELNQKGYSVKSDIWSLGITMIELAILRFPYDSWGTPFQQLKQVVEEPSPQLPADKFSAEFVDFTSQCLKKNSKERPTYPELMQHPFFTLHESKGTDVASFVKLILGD
Chain of UniProt P46734 (whole entry, looked up): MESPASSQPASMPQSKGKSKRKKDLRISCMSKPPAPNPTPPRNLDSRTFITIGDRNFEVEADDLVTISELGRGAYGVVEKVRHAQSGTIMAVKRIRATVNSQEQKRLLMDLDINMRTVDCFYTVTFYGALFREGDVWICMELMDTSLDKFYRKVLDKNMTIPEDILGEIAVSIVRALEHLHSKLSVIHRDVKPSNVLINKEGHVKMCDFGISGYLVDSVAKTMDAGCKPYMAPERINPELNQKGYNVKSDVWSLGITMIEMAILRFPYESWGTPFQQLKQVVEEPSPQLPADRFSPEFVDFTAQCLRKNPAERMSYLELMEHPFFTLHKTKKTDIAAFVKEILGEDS

The tissue distribution of `CSCC[C@H](N)C(=O)N[C@@H](C)C(=O)N[C@@H](Cc1c[nH]c2ccccc12)C(=O)N[C@@H](Cc1c[nH]cn1)C(=O)N[C@@H](CC(=O)O)C(=O)N[C@@H](CC(=O)O)C(=O)N[C@@H](CCC(=O)O)C(=O)N[C@@H](CCC(=O)O)C(=O)N[C@@H](Cc1ccccc1)C(=O)N[C@@H](C)C(=O)N[C@@H](CCCNC(=N)N)C(=O)N[C@@H](CCCNC(=N)N)C(=O)N[C@@H](CCCNC(=N)N)C(=O)N[C@@H](CCCNC(=N)N)C(=O)NCCCCCC(=O)NCCCCC(NC(=O)CCCCCNC(=O)[C@H](CCCNC(=N)N)NC(=O)[C@H](CCCNC(=N)N)NC(=O)[C@H](CCCNC(=N)N)NC(=O)[C@H](CCCNC(=N)N)NC(=O)[C@H](C)NC(=O)[C@H](Cc1ccccc1)NC(=O)[C@H](CCC(=O)O)NC(=O)[C@H](CCC(=O)O)NC(=O)[C@H](CC(=O)O)NC(=O)[C@H](CC(=O)O)NC(=O)[C@H](Cc1c[nH]cn1)NC(=O)[C@H](Cc1c[nH]c2ccccc12)NC(=O)[C@H](C)NC(=O)[C@@H](N)CCSC)C(=O)NCCCCC(NC(=O)C(CCCCNC(=O)CCCCCNC(=O)[C@H](CCCNC(=N)N)NC(=O)[C@H](CCCNC(=N)N)NC(=O)[C@H](CCCNC(=N)N)NC(=O)[C@H](CCCNC(=N)N)NC(=O)[C@H](C)NC(=O)[C@H](Cc1ccccc1)NC(=O)[C@H](CCC(=O)O)NC(=O)[C@H](CCC(=O)O)NC(=O)[C@H](CC(=O)O)NC(=O)[C@H](CC(=O)O)NC(=O)[C@H](Cc1c[nH]cn1)NC(=O)[C@H](Cc1c[nH]c2ccccc12)NC(=O)[C@H](C)NC(=O)[C@@H](N)CCSC)NC(=O)CCCCCNC(=O)[C@H](CCCNC(=N)N)NC(=O)[C@H](CCCNC(=N)N)NC(=O)[C@H](CCCNC(=N)N)NC(=O)[C@H](CCCNC(=N)N)NC(=O)[C@H](C)NC(=O)[C@H](Cc1ccccc1)NC(=O)[C@H](CCC(=O)O)NC(=O)[C@H](CCC(=O)O)NC(=O)[C@H](CC(=O)O)NC(=O)[C@H](CC(=O)O)NC(=O)[C@H](Cc1c[nH]cn1)NC(=O)[C@H](Cc1c[nH]c2ccccc12)NC(=O)[C@H](C)NC(=O)[C@@H](N)CCSC)C(N)=O` (stereo partly drawn) is reported as 0.67% and 0.61% and 1.11% (C57BL/6 mouse female, spleen; dose not given, 6 h; relative to: total).
For `CSCC[C@H](NC(=O)CNC(=O)[C@H](CCCCN)NC(=O)[C@H](CC(C)C)NC(=O)[C@@H]1CCCN1C(=O)[C@H](CO)NC(=O)[C@H](Cc1c[nH]cn1)NC(=O)[C@H](Cc1c[nH]c2ccccc12)NC(=O)[C@H](CCCNC(=N)N)NC(=O)[C@H](CC(C)C)NC(=O)[C@H](CCCNC(=N)N)NC(=O)[C@H](Cc1c[nH]c2ccccc12)NC(=O)[C@H](CS)NC(=O)CCCCCNC(=O)CN1CCN(CC(=O)O)CCN(CC(=O)O)CCN(CC(=O)O)CC1)C(=O)O` [copper-64 labelled], the tissue uptake was 3.17 %ID/g (ex vivo biodistribution; C57BL/6J mice bearing B16-F10 tumours, tumour; intravenous, 1.85 MBq, 18 h).
`CC(C)[C@H]1NC(=O)C[C@H]2/C=C/CCSSC[C@@H](NC1=O)C(=O)N[C@H](Cc1cccc3ccccc13)C(=O)NCC(=O)O2` has an inhibition of -0.643% (MAP2K6 (Homo sapiens, UniProt P52564); 10 µM).
With `CS(C)(=O)=Nc1ccc(-c2ccc(-c3nc4cc(O[C@@H]5CO[C@H]6[C@@H]5OC[C@H]6O)[nH]c4cc3F)cc2)cc1` the inhibition was 6% (PRKCA (Homo sapiens, UniProt P17252); enzyme activity, inhibitor; 10 µM).
`CCc1nn(C)c2nc(-c3ccc(C(=O)O)cc3)nc(NCc3ccccc3)c12` has a concentration of 5320 ng/mL (male CD-1 mouse, plasma; intravenous, 1 mg/kg, 4.8 min).
`CC(C)C[C@@H](NC(=O)[C@@H](CCCNC(=N)N)NC(=O)[C@@H](Cc1c[nH]cn1)NC(=O)[C@@H](Cc1c[nH]c2ccccc12)NC(=O)[C@@H](Cc1c[nH]cn1)NC(=O)[C@@H](Cc1ccccc1)NC(=O)[C@H](NC(=O)[C@@H](Cc1ccc(O)cc1)NC(=O)CNC(=O)CNC(=O)CCOCCOCCOCCNC(=O)CN1CCN(CC(=O)O)CCN(CC(=O)O)CC1)[C@H](C)O)C(=O)N[C@H](CC(N)=O)C(=O)N1CCC[C@@H]1C(=O)O` [gallium-68 labelled] has a tissue ratio of 5.69 ± 1.32 (C57BL/6 mice, male; intravenous, 1.85 MBq, 120 min; relative to: tumour over heart).
With `O=C(O)CC[C@H](NC(=O)[C@H](CCC(=O)O)NC(=O)[C@H](CCC(=O)O)NC(=O)[C@H](CCC(=O)O)NC(=O)[C@H](CCC(=O)O)NC(=O)CNC(=O)[C@H](CCC(=O)O)NC(=O)CNC(=O)[C@H](CCC(=O)O)NC(=O)[C@@H](Cc1ccccc1)NC(=O)[C@@H](Cc1ccccc1)NC(=O)Cc1ccc2ccccc2c1)C(=O)O` the nanoparticle diameter was 13 ± 2 nm (TEM; aqueous solution; 500 µM, pH 7).
`CCCC[C@H]1C(=O)N(C)[C@@H](CCCC)C(=O)N[C@@H](CCCNC(=O)CN2CCN(CC(=O)O)CCN(CC(=O)O)CCN(CC(=O)O)CC2)C(=O)N[C@H](C(=O)NCC(N)=O)CSCC(=O)N[C@@H](Cc2ccc(O)cc2)C(=O)N(C)[C@@H](C)C(=O)N[C@@H](CC(N)=O)C(=O)N2CCC[C@H]2C(=O)N[C@@H](Cc2c[nH]cn2)C(=O)N[C@@H](CC(C)C)C(=O)N(C)CC(=O)N[C@@H](Cc2c[nH]c3ccccc23)C(=O)N[C@@H](CO)C(=O)N[C@@H](Cc2c[nH]c3ccccc23)C(=O)N1C` [gallium-68 labelled] has a tissue uptake of 42.1 ± 13.9 %ID/g (NOD/SCID mice with CHO-hPD-L1 xenograft, kidney; 120 min post injection).
`CCCCCCCCCCCCCC(=O)N[C@H](CCN)C(=O)N[C@@H]1C(=O)N[C@@H](CCN)C(=O)N[C@@H](CC(C)C)C(=O)N[C@@H](CCN)C(=O)N[C@H](Cc2ccccc2)C(=O)N[C@@H](CC(C)C)C(=O)N[C@@H](CCN)C(=O)N[C@H](CCN)C(=O)N[C@@H](C(C)C)C(=O)N[C@@H](CC(=O)O)C(=O)O[C@@H]1C` has an MRT(0-inf) of 18 h (rat, plasma; subcutaneous, 10 mg/kg).
For `COCC12CCC(OC)C34C5CC6(O)C(OC)C(O)C(O)(C5C6OC(=O)c5ccccc5)C(C(OC)C13)C4N(C)C2` (stereo not drawn), the MRT(0-t) was 7.8 ± 3.73 h (Sprague-Dawley rat, plasma; oral, dose not given, with H in PCW extract).
With `Cc1ccc(NS(=O)(=O)c2c(C(=O)N3CCCCCC3)c(C)n(C)c2C)c(Cl)c1` the viability was 95.6% and 100% (CV-1; African green monkey cells; 33.33 µM, 60 (unit not given)).
For `C#Cc1c(F)ccc2cc(O)cc(-c3ncc4c(N5CC6CCC(C5)N6C(=O)OC(C)OC(=O)C(C)CC)nc(OC[C@@]56CCCN5C[C@H](F)C6)nc4c3F)c12` (stereo partly drawn), the t1/2 was 0.33 h (item: prodrug; mouse whole blood; 1 µM).
`CN(C)[C@H]1C[C@@]23CC[C@@]4(O2)C(=CC[C@]2(C)[C@@H](c5ccc6ccncc6c5)CC[C@H]24)C=C3[C@@H](O)[C@@H]1O` has an inhibition of 7.7% (MAP2K3 (Homo sapiens, UniProt P46734); ATP probe labelling, inhibitor, KiNativ profiling; 1 µM).
The Papp B→A of `CC(C)N1CCCCC1C(=O)NC(Cc1ccc(-c2ccccc2)cc1)B(O)O` (stereo not drawn) is reported as 25 ×10⁻⁶ cm/s (Caco-2).
For `COc1ccccc1-c1n[nH]c2nc(N[C@H]3CC[C@H](NS(=O)(=O)CC(C)C)CC3)ncc12`, the relative abundance was 1.19 (bead binding, competition bead pull-down, item: LINJ.30.3480; Leishmania donovani extract; 10 µM; relative to: vehicle).
`CC(CCC(=O)NCC(=O)O)C1CCC2C3CCC4CC(OC5OC(C(=O)O)C(O)C(O)C5O)CCC4(C)C3CC(O)C12C` (stereo not drawn) has a plasma concentration of 490 ng/mL (men, C/C genotype, plasma; dose not given, geometric mean).
`COc1ccccc1-c1n[nH]c2nc(NC3CCN(C(=O)Cc4ccc(F)cc4F)CC3)ncc12` gave a relative abundance of 0.93 (bead binding, competition bead pull-down, item: LINJ.03.0380; Leishmania donovani axenic amastigote extract; 10 µM; relative to: vehicle).
With `COc1ccc([C@@H]2CC(=O)c3c(O)cc(O[C@@H]4O[C@H](CO)[C@@H](O)[C@H](O)[C@H]4O[C@@H]4O[C@@H](C)[C@H](O)[C@@H](O)[C@H]4O)cc3O2)cc1O` the urinary recovery was 0.001 ± 0.0004% (male Sprague-Dawley rats, lean, urine; oral, 100 mg/kg, 48 h; relative to: oral dose).
`C[C@H](O)[C@@H](NC(=O)[C@H]1CCCN1C(=O)[C@@H](CCCCN)NC(=O)[C@@H](CO)NC(=O)[C@@H](Cc1ccc(O)cc1)NC(=O)[C@@H](CC(N)=O)NC(=O)CCOCCOCCOCCNC(=O)CN1CCN(CC(=O)O)CCN(CC(=O)O)CCN(CC(=O)O)CC1)C(=O)N[C@H](CC(=O)O)C(=O)N[C@H](CCCNC(=N)N)C(=O)N[C@H](CCC(N)=O)C(=O)N[C@H](Cc1ccc(O)cc1)C(=O)N[C@H](Cc1c[nH]cn1)C(=O)N[C@H](Cc1ccccc1)C(N)=O` [gallium-68 labelled] has a tissue uptake of 4.5 ± 0.32 %ID/g (BALB/c nude mice U-87 MG tumour, tumor; intravenous, 1.85 MBq, 0.08333 h, radiolabelled).
`CC(C)(C)C(=O)OCOP(=O)(OCOC(=O)C(C)(C)C)C1CCCN(O)C1=O` (stereo not drawn) gave a TGI of 1120 nM (RPMI-8226).
`O=C1NC2(CC2)COc2ncc(F)cc2[C@H]2COCCN2c2ccn3ncc1c3n2`: “aspartate aminotransferase activity” 108 ± 18.3 U/L (Sprague-Dawley rat, female, serum; oral, 5 mg/kg/day, 4 weeks daily, end of treatment).
